{"data": "Published values from different studies", "note": "Every numbered part comes from another study and shows a few of its results, in no order. Changes are numbered by the printed parent chain."}
{"data": "Set 1", "target": "Histone acetyltransferase KAT6A, both winged helices, GST fusion (KAT6A, Homo sapiens, UniProt Q92794, residues 1-181)", "method": "protein binding microarray", "form": "double-stranded DNA, one strand shown", "medium": "in vitro", "tested at": "not given", "notes": "8-mer, flanks averaged, mean of 2 arrays, mostly near background", "relative to": "not given", "reading": "higher = stronger binding", "Target sequence (chain)": "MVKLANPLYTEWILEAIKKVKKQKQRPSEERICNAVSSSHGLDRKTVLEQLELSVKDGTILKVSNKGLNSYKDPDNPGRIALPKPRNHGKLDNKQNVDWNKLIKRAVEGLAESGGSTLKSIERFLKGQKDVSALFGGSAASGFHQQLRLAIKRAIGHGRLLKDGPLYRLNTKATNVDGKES"}
{"Sequence": "CTTGGGGC", "E-score": -0.00617}
{"Sequence": "CAAGCTAC", "E-score": -0.0872}
{"Sequence": "GATCACCC", "E-score": -0.138}
{"Sequence": "AAAATAAC", "E-score": -0.0174}
{"Sequence": "CGATTGCC", "E-score": 0.106}
{"Sequence": "AAGACAAG", "E-score": -0.0966}
{"Sequence": "GCGTACGC", "E-score": 0.323}
{"Sequence": "AAACTCCA", "E-score": -0.107}
{"Sequence": "AGGACAGC", "E-score": -0.0297}
{"Sequence": "ACGATCTA", "E-score": -0.208}
{"Sequence": "CAATGTAA", "E-score": 0.0354}
{"Sequence": "CGTCCACA", "E-score": 0.0654}
{"Sequence": "GGAGAGGA", "E-score": -0.118}
{"Sequence": "GAATAACA", "E-score": -0.0473}
{"Sequence": "AAGGACCA", "E-score": -0.156}
{"Sequence": "GGTCTATA", "E-score": -0.0524}
{"Sequence": "ATCACATA", "E-score": -0.0485}
{"Sequence": "CGATCGAG", "E-score": 0.138}
{"Sequence": "TATTTCGA", "E-score": 0.0916}
{"data": "Set 2", "target": "TAR DNA-binding protein 43, full length, His tag (TARDBP, Homo sapiens, UniProt Q13148, residues 1-414)", "method": "RNA Bind-n-Seq", "form": "RNA", "medium": "in vitro", "tested at": "20 nM", "notes": "6-mer, flanks averaged, single round", "together with": "150 mM LiCl", "relative to": "input library", "reading": "higher = stronger binding"}
{"Sequence": "AGAAGU", "6-mer enrichment (R)": 0.967}
{"Sequence": "CAACGA", "6-mer enrichment (R)": 0.776}
{"Sequence": "UACGGU", "6-mer enrichment (R)": 0.921}
{"Sequence": "CUGCUA", "6-mer enrichment (R)": 0.882}
{"Sequence": "UACUGC", "6-mer enrichment (R)": 0.87}
{"Sequence": "GCAUAC", "6-mer enrichment (R)": 0.844}
{"Sequence": "CCGCUA", "6-mer enrichment (R)": 0.902}
{"Sequence": "CACGAC", "6-mer enrichment (R)": 0.791}
{"Sequence": "GUCUAC", "6-mer enrichment (R)": 0.852}
{"Sequence": "UAGGAG", "6-mer enrichment (R)": 1.01}
{"Sequence": "UCGAGC", "6-mer enrichment (R)": 0.842}
{"Sequence": "AAGCCA", "6-mer enrichment (R)": 0.841}
{"Sequence": "CCAUAU", "6-mer enrichment (R)": 0.951}
{"data": "Set 3", "target": "CCND1, cyclin fold, Cln2 fusion (human)", "method": "yeast growth competition, sequencing", "medium": "yeast", "notes": "weak parent motif", "relative to": "not given", "reading": "higher = stronger binding", "starting sequence": "PKN2 docking peptide (human); DSTVTKLDFDLEP; partner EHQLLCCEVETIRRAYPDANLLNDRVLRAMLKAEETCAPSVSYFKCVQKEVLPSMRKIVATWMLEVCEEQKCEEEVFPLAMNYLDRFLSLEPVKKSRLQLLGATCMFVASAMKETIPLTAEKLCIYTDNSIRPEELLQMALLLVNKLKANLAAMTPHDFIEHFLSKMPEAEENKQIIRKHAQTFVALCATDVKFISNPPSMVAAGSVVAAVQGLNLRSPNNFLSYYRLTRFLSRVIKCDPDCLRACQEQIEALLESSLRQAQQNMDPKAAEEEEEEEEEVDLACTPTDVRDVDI"}
{"Substitution": "T3A", "normalised enrichment score": 0.899}
{"Substitution": "F9A", "normalised enrichment score": 0.145}
{"Substitution": "D8A", "normalised enrichment score": 0.346}
{"Substitution": "V4A", "normalised enrichment score": 0.645}
{"Substitution": "D10A", "normalised enrichment score": 0.491}
{"Substitution": "K6A", "normalised enrichment score": 0.755}
{"Substitution": "S2A", "normalised enrichment score": 0.686}
{"data": "Set 4", "target": "ABI1, truncated, D143A, DHFR fusion (Arabidopsis thaliana)", "method": "DHFR PCA, deep sequencing", "medium": "yeast", "notes": "methotrexate growth selection, single substitutions", "together with": "(+)-ABA 0.11 µM", "relative to": "wild-type fitted maximum", "reading": "higher = stronger binding", "starting sequence": "PYL1, truncated, DHFR fusion (Arabidopsis thaliana); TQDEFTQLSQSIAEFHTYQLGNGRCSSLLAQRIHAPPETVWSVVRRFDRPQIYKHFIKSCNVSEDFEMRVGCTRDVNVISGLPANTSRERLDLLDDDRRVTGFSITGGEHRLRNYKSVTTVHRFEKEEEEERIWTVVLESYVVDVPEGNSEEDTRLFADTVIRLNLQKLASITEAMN"}
{"Substitution": "V136S", "relative binding score [%]": 2.41}
{"Substitution": "L93K", "relative binding score [%]": 3.17}
{"Substitution": "F47I", "relative binding score [%]": -0.984}
{"Substitution": "L8D", "relative binding score [%]": -2.21}
{"Substitution": "H122R", "relative binding score [%]": -1.36}
{"Substitution": "E139R", "relative binding score [%]": 4.41}
{"Substitution": "W134K", "relative binding score [%]": -0.356}
{"Substitution": "C25Y", "relative binding score [%]": -2.48}
{"Substitution": "Q2G", "relative binding score [%]": 16.9}
{"Substitution": "L91C", "relative binding score [%]": -7.06}
{"Substitution": "R99G", "relative binding score [%]": -4.21}
{"Substitution": "I133D", "relative binding score [%]": 63.2}
{"Substitution": "S150D", "relative binding score [%]": 20.3}
{"Substitution": "H122K", "relative binding score [%]": -11.1}
{"Substitution": "N177P", "relative binding score [%]": 26.7}
{"Substitution": "E130N", "relative binding score [%]": 44.4}
{"Substitution": "N165R", "relative binding score [%]": 6.45}
{"Substitution": "H122F", "relative binding score [%]": -6.75}
{"Substitution": "K116M", "relative binding score [%]": -0.329}
{"Substitution": "C60H", "relative binding score [%]": 2.26}
{"Substitution": "L8T", "relative binding score [%]": -3.87}
{"Substitution": "S11A", "relative binding score [%]": 54.3}
